Published values from different studies.
Each line is one published result; not all experiments were run side by side. “And” joins repeats or separate records; there may be more than shown. ± marks the error that the study gave.

SMILES | assay | test system | setting | how to read | endpoint | result
Cn1cc(Nc2nccc(-c3ccc4c(c3)CN(C3COC3)CC[C@H]4NC(=O)c3cn(C(C)(C)C)nn3)n2)cn1 | item: NK cell count | human, clinical trial, whole blood | 50 mg twice daily, follow-up |  | percent change from baseline | 10.7%
CC[C@H]1OC(=O)[C@H](C)[C@@H](O[C@H]2C[C@@](C)(OC)[C@@H](O)[C@H](C)O2)[C@H](C)[C@@H](O[C@@H]2O[C@H](C)C[C@H](N(C)C)[C@H]2O)[C@](C)(O)C[C@@H](C)C(=O)[C@H](C)[C@@H](O)[C@]1(C)O | starch gel membrane permeability | Gram-negative envelope surrogate | 200 µM, 45 min, pH 7.4 |  | amount permeated | 0.56 nmol
O=C(COc1ccc(Cl)cc1)NC12CC(c3nnc([C@H]4C[C@@H](OC(F)(F)F)C4)o3)(C1)C2 | item: catheter site pain | healthy humans, both sexes | oral, 200 mg, single ascending dose | relative to: subjects | treatment-emergent adverse events | 16.7%
O=C(N[C@H](Cc1c[nH]c2ccccc12)C(=O)Nc1ccncc1)c1ccc(N2CCN(c3ccc(F)cc3F)CC2)cc1F |  | Swiss Webster mouse, female, muscle | oral, 50 mg/kg, 8 h, 20% Kolliphor vehicle |  | concentration | 3.72 µM
OCc1nc2ccc(NCc3ccc(C(F)(F)F)cc3)cc2[nH]1 |  | male Balb/c mice, heart | oral, 10 mg/kg, 6 h | relative to: tissue over plasma | tissue/plasma ratio | 3.27 ± 0.2
CCc1cc(C(=O)NC)c2nccc(N3CCc4c(cc(Cn5ccnc5)cc4-c4cn(C)nc4C(F)(F)F)C3=O)c2c1 |  | Sprague Dawley rats | oral, 100 mg/kg twice daily, 7 days | relative to: vehicle | serum ALP change | -1%
CN(C(=O)n1cnc(-c2ccc[n+]([O-])c2)c1)[C@H]1CC[C@H](O)CC1 |  | rat, cortex | oral, 10 mg/kg daily for 5 days, 4 h |  | tissue concentration | 8.8 ± 0.6 ng/g
CC(C)C[C@H](NC(=O)CNC(=O)c1cc(Cl)ccc1Cl)B(O)O | item: Thrombocytopenia | human newly diagnosed multiple myeloma | oral, dose not given, maintenance, grade 3, onset cycle 17 or later |  | treatment-emergent adverse events | 0%
Cc1ccc(Sc2ccccc2N2CCNCC2)c(C)c1 | item: ALT increased | healthy adult women | oral, 10 mg daily, 12 days |  | participants with TEAE | 0%
N#C[C@@]1(c2ccc3c(N)ncnn23)O[C@H](CO)[C@@H](O)[C@H]1O | plasma protein binding | rat plasma | 10 µM, time not given |  | recovery | 96.5%
CC(C)(C(=O)N1CCOc2c(C#N)cncc2C1)C(F)F | item: Dizziness | human | oral, 40 mg, CSF pharmacokinetic cohort |  | subjects with adverse event | 16.7%
C=CCN1CC(=O)N2[C@@H](Cc3ccc(O)cc3F)C(=O)N(Cc3cccc(N4CC(N5CCN(CC)CC5)C4)n3)C[C@@H]2N1C(=O)NCc1ccccc1 |  | advanced solid tumour patients | oral, 160 mg twice daily, any grade, dose-escalation |  | treatment-related AST increased | 50%
COc1ccc2c3c([nH]c2c1)[C@H](CC(C)C)N1C(=O)[C@H](CC(=O)NC(C)C)NC(=O)[C@@H]1C3 |  | wild-type mouse, male, serum | oral, 100 mg/kg, 24 h |  | serum concentration | 0.011 µM and 0.0337 µM and 0.0119 µM and 0.0202 µM
COc1ccc2[nH]c([S+]([O-])Cc3ncc(C)c(OC)c3C)nc2c1 (centres unmarked) |  | healthy Chinese volunteers, plasma | oral, 20 mg, fed, CYP2C19 rapid metabolizers |  | Cmax | 268 ± 198 ng/mL
CC(C)C[C@H](NC(=O)[C@@H](Cc1c[nH]c2ccccc12)NC(=O)[C@H](Cc1ccc(O)cc1)NC(=O)[C@H](CO)NC(=O)[C@H](Cc1c[nH]c2ccccc12)NC(=O)[C@H](Cc1c[nH]cn1)NC(=O)[C@@H]1CCC(=O)N1)C(=O)N[C@@H](CCCNC(=N)N)C(=O)N1CCC[C@H]1C(=O)NCC(N)=O |  | Chinese girls, precocious puberty, plasma | intramuscular, 22.5 mg, 8640 h, month 12, mean |  | plasma concentration | 0.0288 ng/mL
COc1ccc([C@@H]2CC(=O)c3c(O)cc(O)cc3O2)cc1O |  | human plasma | mean, both sexes |  | plasma concentration | 187 nM
O=Cc1cc2c(cc1F)C(=O)N(C1CCC(=O)NC1=O)C2 (centres unmarked) |  | cynomolgus monkey, male | oral, 0.3 mg/kg parent drug, 2 h |  | plasma concentration | 0.49 ng/mL
Cl.[2H]C([2H])([2H])CC(=O)c1cnc(NC(=O)C2CC2)cc1Nc1cccc(-c2ncn(C([2H])([2H])[2H])n2)c1OC | geometric mean | human | oral, 20 mg twice daily, day 1, fed, liquid, multiple dose |  | Vz/F | 118 L
CNC(=O)c1ccc(-c2cnc3ncc(Cc4ccc5ncccc5c4)n3n2)cc1F | CTCAE v4.0, any causality | human cancer patients | oral, 600 mg twice daily, expansion cohort at RP2D |  | back pain incidence (all grades) | 13%

SMILES | assay | test system | setting | how to read | endpoint | result
O=C(/C=C/CCc1ccc(O)cc1)/C=C/c1ccc(O)cc1 |  | nude mouse MCF7 xenograft | 40 mg/kg, day 0 |  | body weight | 20.1 ± 1.17 g
O=C(O)CCc1ccc(O)c(O[C@@H]2O[C@H](C(=O)O)[C@@H](O)[C@H](O)[C@H]2O)c1 |  | human plasma | median |  | plasma concentration | 226 nM
COc1ncc(-c2nc3c(n2C(C)C)[C@H](c2ccc(Cl)cc2)N(c2cc(Cl)cn(C)c2=O)C3=O)c(OC)n1 | LC-MS/MS | human, plasma | oral, 1 mg, cycle 1 day 14, low-dose arm |  | AUC(0-last) | 99.5 ng·h/mL
C[C@@H](N)C1CCN(S(=O)(=O)c2cccc3cnccc23)CC1 |  | healthy volunteers | 250 mg, 2 h, standing | relative to: baseline | systolic blood pressure reduction | -16.5 mmHg
CN[C@H](CC(C)C)C(=O)N[C@H]1C(=O)N[C@@H](CC(N)=O)C(=O)N[C@H]2C(=O)N[C@H]3C(=O)N[C@H](C(=O)N[C@H](C(=O)O)c4cc(O)cc(O)c4-c4cc3ccc4O)[C@H](O)c3ccc(c(Cl)c3)Oc3cc2cc(c3O[C@@H]2O[C@H](CO)[C@@H](O)[C@H](O)[C@H]2O[C@H]2C[C@](C)(N)[C@H](O)[C@H](C)O2)Oc2ccc(cc2Cl)[C@H]1O | starch gel membrane permeability | Gram-negative envelope surrogate | 200 µM, 10 min, pH 7.4 |  | amount permeated | 0.07 nmol
COc1cc2c(cc1OC)C(=O)C(CC1CCN(Cc3ccccc3)CC1)C2 (centres unmarked) | Bond-Lader VAS, item: Calmness | human | dose not given | relative to: placebo, direction not given | VAS score change | 0.59 mm
NC1(C(=O)N[C@@H](CCO)c2ccc(Cl)cc2)CCN(c2nc[nH]c3nccc2-3)CC1 |  | metastatic CRPC patients | 480 mg b.i.d., grade 3 to 4, treatment-related, added: enzalutamide 160 mg daily |  | incidence of Vomiting | 0%
Cn1c(=O)c2c(ncn2C)n(C)c1=O |  | human, both sexes, plasma |  |  | samples above LOQ | 100%
COc1cc(Nc2ncc3c(n2)-c2ccc(Cl)cc2C(c2c(F)cccc2OC)=NC3)ccc1C(=O)O |  | patients | oral, dose not given, grade 2, any attribution, added: pembrolizumab |  | decreased platelet count incidence | 13%
O=C(O)[C@H]1O[C@@H](Oc2cc(O)cc(/C=C\c3ccc(O)cc3)c2)[C@H](O)[C@@H](O)[C@@H]1O |  | human, plasma |  |  | samples above LOQ | 100%
O=C(Nc1nc2cccc(-c3ccc(CN4CCS(=O)(=O)CC4)cc3)n2n1)C1CC1 | item: nausea | human rheumatoid arthritis patients | oral, 200 mg once daily, 4 weeks, regardless of relatedness |  | treatment-emergent adverse events | 25%
O=S(=O)(O)Oc1cc(CCO)ccc1O |  | human plasma | median |  | plasma concentration | 258 nM
C[C@@H](O)[C@H]1C(=O)N2C(C(=O)O)=C(SCCN=CN)C[C@H]12 | starch gel membrane permeability | Gram-negative envelope surrogate | 200 µM, 90 min, pH 7.4 |  | amount permeated | 5.04 nmol
NC(=O)N1c2ccccc2C=Cc2ccccc21 | item: gingival bleeding | human male | oral, dose not given, CTCAE on-treatment AEs |  | adverse events incidence | 0%
N#Cc1ccc2c(c1)[C@H]1CCCN(C(=O)c3ccc4[nH]cnc4c3)[C@H]1C2 |  | human | 160 mg, day 15 |  | minimum ACTH level | 1.9 pmol/L
O=C1CC[C@H](Cc2ccc(OS(=O)(=O)O)c(O)c2)O1 |  | human plasma | median |  | plasma concentration | 1080 nM
Cc1cc(NC2CCN(C(=O)OC3CCN(C(=O)/C=C/CN(C)C)C3)CC2)n2ncc(C(C)C)c2n1 (centres unmarked) | Phase I dose escalation CTCAE v4.0, item: urinary tract infection | patients with advanced solid tumours | dose not given, Total dosing grade 3 or higher |  | patients with adverse event | 0%
O=C(O)CCC(=O)O.[2H]C([2H])([2H])Oc1cc(C)c2[nH]ccc2c1CN1CC[C@@H](C2CC2)C[C@H]1c1ccc(C(=O)O)cc1 |  | healthy Chinese subjects | 50 mg, single ascending dose |  | TEAE urinary sediment detected | 0%
Cc1noc(C)c1-c1cc(C(O)(c2ccccn2)c2ccccn2)c2nc(C3CC3)[nH]c2c1 |  | human, plasma | oral, 4 mg, cycle 1 day 8, monotherapy |  | AUCtau | 4130 ng·h/mL

SMILES | assay | test system | setting | how to read | endpoint | result
CN(C)c1cc(NC(=O)CNC(C)(C)C)c(O)c2c1C[C@H]1C[C@H]3[C@H](N(C)C)C(O)=C(C(N)=O)C(=O)[C@@]3(O)C(O)=C1C2=O | starch gel membrane permeability | Gram-negative envelope surrogate | 200 µM, 45 min, pH 7.4 |  | amount permeated | 1.96 nmol
Cc1c2oc3c(C)ccc(C(=O)N[C@@H]4C(=O)N[C@H](C(C)C)C(=O)N5CCC[C@H]5C(=O)N(C)CC(=O)N(C)[C@@H](C(C)C)C(=O)O[C@@H]4C)c3nc-2c(C(=O)N[C@@H]2C(=O)N[C@H](C(C)C)C(=O)N3CCC[C@H]3C(=O)N(C)CC(=O)N(C)[C@@H](C(C)C)C(=O)O[C@@H]2C)c(N)c1=O | LC-MS | children with cancer, plasma | dose not given, 1 h |  | minimum plasma concentration | 3.3 µg/L
CC(C)(Sc1ccncc1-c1ccc(C#N)c2ccccc12)C(=O)O |  | human, plasma | oral, 2.5 mg once daily, added: febuxostat 20 mg |  | AUC(0-24) | 50.8 ng·h/mL
Cc1cc(Nc2cc3ncccc3c(N[C@@H]3C[C@H]4CC[C@@H](C3)N4CCC#N)n2)n[nH]1 |  | healthy human subjects | oral, 1000 mg, 2 weeks, single ascending dose |  | sneezing incidence | 0%
C[C@@H]1COCCN1c1cc(C2([S@](C)(=N)=O)CC2)nc(-c2cc[nH]c3nccc2-3)n1 |  | Japanese advanced solid tumour patients | oral, 240 mg twice daily, CTCAE grade ≥3 |  | Diarrhea incidence | 0%
CCN1/C(=C/C(C)=O)Sc2ccc(F)cc21 |  | cynomolgus monkey | oral, 30 mg/kg, 1 h post-dose |  | mean blood pressure | 85 ± 6 mmHg
COc1ccnc(C(=O)NC(CO)C(=O)O)c1O (racemic) |  | sediment, Swiss lake sand | 20 °C, aerobic dark |  | DT50 | 1000 days
FC(F)(F)c1ccc(CNc2ccc(Cc3c[nH]c4ncc(Cl)cc34)cn2)cn1 | item: Nausea | patients with advanced solid tumours, non-TGCT cohort | oral, 1000 mg/day, grade 3 or higher |  | treatment-related adverse events | 0%
O=C1C[C@@H](c2ccc(O)cc2)Oc2cc(O[C@@H]3O[C@H](C(=O)O)[C@@H](O)[C@H](O)[C@H]3O)cc(O)c21 |  | human plasma | median |  | plasma concentration | 617 nM
CN[C@H]1C(=O)N[C@@H]2Cc3ccc(cc3)Oc3cc4cc(c3O[C@@H]3O[C@H](C(=O)O)[C@@H](O)[C@H](O)[C@H]3NC(=O)CCCCCCCCC(C)C)Oc3ccc(cc3Cl)[C@@H](O)[C@@H]3NC(=O)[C@H](NC(=O)[C@@H]4NC(=O)[C@@H](NC2=O)c2cc(cc(O)c2Cl)Oc2cc1ccc2O)c1ccc(O)c(c1)-c1c(O[C@H]2O[C@H](CO)[C@@H](O)[C@H](O)[C@@H]2O)cc(O)cc1[C@@H](C(=O)NCCCN(C)C)NC3=O | population PK model | paediatric patients | dose not given, reference weight 70 kg |  | peripheral volume of distribution | 6.1 L
CCCCOC(=O)N1CCN(C(=O)[C@H](CP(=O)(O)O)NC(=O)c2cc(N3CC[C@H](OC)C3)nc(-c3ccccc3)n2)CC1 | item: alkaline phosphatase | human, serum | 8 mg, 24 h post-dose |  | change from baseline | -0.5 ± 7.7 U/L
CCCCOc1nc(N)c2c(n1)N(Cc1cccc(CN3CCCC3)c1)CC(=O)N2 | item: Hallucinations | human | oral, 2 mg |  | drug-related TEAE incidence | 0%
CC1(C)NC(=O)Cn2c1nc(-c1ccc(F)cc1)c2Nc1ccc(Cl)c(F)c1 | PAMPA |  |  |  | absorbed fraction | 97.1%
Cc1cc(-c2nccc3c2ccn3CC(=O)Nc2ccc(-c3cnccn3)cn2)ccn1 |  | human | 15 mg once daily, multiple ascending dose |  | foreign body sensation | 11.1%
Cc1ccc([C@@H]2O[C@H](CO)[C@@H](O)[C@H](O)[C@H]2O)cc1Cc1ccc(-c2ccc(F)cc2)s1 |  | Japanese type 2 diabetes patients | 100 mg, day 16, 24 h urine collection | relative to: baseline | urinary sodium excretion change | -24.7 mEq
Oc1ccc([C@H]2COc3cc(O)ccc3C2)cc1 |  | human plasma | mean, both sexes |  | plasma concentration | 1730 nM
CCC[C@@H]1C[C@@H](C(=O)N[C@@H]([C@H]2O[C@H](SC)[C@H](O)[C@@H](O)[C@H]2O)[C@@H](C)O)N(C)C1 | starch gel membrane permeability | Gram-negative envelope surrogate | 200 µM, 45 min, pH 7.4 |  | amount permeated | 2.01 nmol
Cc1nc2cccc(OCC(C)(C)C(=O)NC(C)C)c2c(N)c1C(=O)O |  | Sprague-Dawley rat, plasma | oral, 100 mg/kg, day 1 | relative to: female over male | AUC(0-last) ratio | 1.94 ± 0.93
